Experimental data collected from several papers.
Lines come from different studies, so protocols differ. “And” joins repeats or separate records; there may be more than shown. Numbers after ± are the reported error.

SMILES	assay	system	setting	measurement	result
CC[C@H](C)[C@H](NC(=O)[C@H](Cc1ccccc1)NC(=O)[C@H](CCC(=O)O)NC(=O)[C@H](CCCNC(=N)N)NC(=O)[C@H](C)NC(=O)[C@H](C)NC(=O)[C@H](CCC(N)=O)NC(=O)[C@H](CCC(=O)O)NC(=O)[C@H](CCC(=O)O)NC(=O)[C@H](CC(C)C)NC(=O)[C@H](Cc1ccc(O)cc1)NC(=O)[C@H](CO)NC(=O)[C@H](CO)NC(=O)[C@@H](NC(=O)[C@H](CC(=O)O)NC(=O)[C@H](CO)NC(=O)[C@@H](NC(=O)[C@H](Cc1ccccc1)NC(=O)[C@@H](NC(=O)CNC(=O)[C@H](CCC(=O)O)NC(=O)[C@H](C)NC(=O)CCc1cnc[nH]1)[C@@H](C)O)[C@@H](C)O)C(C)C)C(=O)N[C@@H](C)C(=O)N[C@@H](Cc1c[nH]c2ccccc12)C(=O)N[C@@H](CC(C)C)C(=O)N[C@H](C(=O)N[C@@H](CCCNC(=N)N)C(=O)NCC(=O)N[C@@H](CCCNC(=N)N)C(=O)N[C@@H](CCCCNC(=O)COCCOCCNC(=O)COCCOCCNC(=O)CC[C@H](NC(=O)CCCCCCCCCCCCCCCCC(=O)O)C(=O)O)C(=O)NCC(=O)NCC(=O)N[C@@H](CO)C(=O)N[C@@H](CCCCNC(=O)[C@H](CCCCNC(=O)[C@H](CCCCNc1c(NCCCCCN(O)C(=O)CCC(=O)NCCCCCN(O)C(=O)CCC(=O)NCCCCCN(O)C(C)=O)c(=O)c1=O)Nc1c(NCCCCCN(O)C(=O)CCC(=O)NCCCCCN(O)C(=O)CCC(=O)NCCCCCN(O)C(C)=O)c(=O)c1=O)NC(=O)[C@H](CCCCNc1c(NCCCCCN(O)C(=O)CCC(=O)NCCCCCN(O)C(=O)CCC(=O)NCCCCCN(O)C(C)=O)c(=O)c1=O)Nc1c(NCCCCCN(O)C(=O)CCC(=O)NCCCCCN(O)C(=O)CCC(=O)NCCCCCN(O)C(C)=O)c(=O)c1=O)C(=O)O)C(C)C [zirconium-89 labelled]	ex vivo gamma counting	Sprague-Dawley rat, male, lung	intravenous, 1 nmol, 24 h	tissue uptake	0.579 %ID/g and 0.576 %ID/g and 0.606 %ID/g and 0.658 %ID/g and 0.529 %ID/g
O=S(=O)(Nc1ccccc1)c1ccc(NC(=S)Nc2ccccc2)cc1	measured: Glu	male mouse, blood	oral, 5 mg/kg daily, 14 days	blood chemistry level	226 mg/dL
O=C(O)CCC(CP(=O)(O)O)C(=O)O (stereo not shown)	–	male NSG mice, C4-2 xenograft, plasma	intravenous, 3 mg/kg molar equivalent, 0.25 to 6 h	AUC(0-t)	33.5 ± 6.1 µM·h
CC[C@H](C)[C@H](NC(=O)[C@H](CCC(=O)O)NC(=O)[C@H](CCCNC(=N)N)NC(=O)[C@H](CCCNC(=N)N)NC(=O)[C@H](CCCNC(=N)N)NC(=O)[C@H](CCC(N)=O)NC(=O)[C@H](CCCNC(=N)N)NC(=O)[C@H](CCCNC(=N)N)NC(=O)[C@H](CCCCN)NC(=O)[C@H](CCCCN)NC(=O)[C@H](CCCNC(=N)N)NC(=O)CNC(=O)[C@H](Cc1ccc(O)cc1)NC(C)=O)C(=O)N[C@@H](CC(=O)O)C(=O)N[C@@H](Cc1c[nH]cn1)C(=O)N[C@@H](CC(=O)O)C(N)=O	HE and NeuN staining	normal mouse, hippocampus	intravenous, dose not given	neuron number and morphology	no effect
Nc1nc2cc(-c3ccc4ncc(C(=O)N5CCOCC5)n4c3)ccc2o1	all-cause decreased appetite, all grades	patients with advanced solid tumours	dose not given	patients with adverse events	34%
C[C@]1(CO)Cc2ncn(-c3ccc(C#N)c(Cl)c3)c2C(=O)O1	–	human, plasma	20 mg, first dose fasted	half-life	4.5 h
CO[C@H]1C[C@@H]2CC[C@@H](C)[C@@](O)(O2)C(=O)C(=O)N2CCCC[C@H]2C(=O)O[C@H]([C@H](C)C[C@@H]2CC[C@@H](OC(=O)NCCOCCOCCOCCOCCOCCOCCOCCOCCC(=O)N3CCc4cc(Cn5nc(-c6ccc7oc(N)nc7c6)c6c(N)ncnc65)ccc4C3)[C@H](OC)C2)C[C@@H](O)[C@H](C)/C=C(\C)[C@@H](O)[C@@H](OC)C(=O)[C@H](C)C[C@H](C)/C=C/C=C/C=C/1C	–	patients with advanced solid tumours	intravenous, 12 mg weekly, grade 3 or higher	maculopapular rash incidence	0%
CN1CC[C@@H](c2c(O)cc(O)c3c(=O)cc(-c4ccc(C(F)(F)F)cc4Cl)oc23)[C@@H]1CO	measured: Hypotension	relapsed or refractory haematological malignancies	oral, dose not given, grade 3 to 4	adverse event incidence	7.5%
COc1cc2c(Oc3ccc4[nH]c(C)cc4c3F)ccnc2cc1OCC1(N)CC1	–	paediatric recurrent refractory sarcoma	8 mg/kg	grade 3 Rash	0%
O=C(c1ccc(F)c(F)c1Nc1ccc(I)cc1F)N1CC(O)([C@@H]2CCCCN2)C1	–	human patients	oral, 1 mg/kg, age ≥18 years	treatment-related AE causing withdrawal	0%

Some of these lines once more:
SMILES	assay	system	setting	measurement	result
O=C(c1ccc(F)c(F)c1Nc1ccc(I)cc1F)N1CC(O)([C@@H]2CCCCN2)C1	–	human patients	oral, 1 mg/kg, age ≥18 years	treatment-related AE causing withdrawal	0%
